Measured values pooled from the literature.
± marks the error that the study gave.

Sequences of proteins named here, by UniProt entry; tags and fusion partners are left off.
UniProt P41143, whole entry: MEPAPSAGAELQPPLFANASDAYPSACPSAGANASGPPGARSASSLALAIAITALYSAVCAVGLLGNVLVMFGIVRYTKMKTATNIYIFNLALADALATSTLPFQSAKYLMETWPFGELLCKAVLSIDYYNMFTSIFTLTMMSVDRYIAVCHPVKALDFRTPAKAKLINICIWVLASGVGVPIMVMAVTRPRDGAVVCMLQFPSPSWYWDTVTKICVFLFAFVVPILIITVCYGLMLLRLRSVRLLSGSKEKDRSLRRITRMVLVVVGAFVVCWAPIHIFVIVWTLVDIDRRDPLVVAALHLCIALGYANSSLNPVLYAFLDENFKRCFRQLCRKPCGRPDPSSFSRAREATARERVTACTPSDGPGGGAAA

For `CO[C@H]1[C@H](O[C@H]([C@H]2O[C@@H](n3ccc(=O)[nH]c3=O)[C@H](O)[C@@H]2O)[C@H](NCCCNC(=O)[C@@H](NC(=O)[C@@H](NC(=O)N[C@H](C(=O)O)C(C)C)[C@@H]2CCNC(=N)N2)[C@@H](OC(=O)CCCCCCCCCCCCNC(=N)N)C(C)C)C(N)=O)O[C@H](CN)[C@H]1O`, the MIC50 was greater than 35 µg/mL (Candida glabrata; alamar blue; DSY565).
For `CCCCCCCCCCCCNC(=O)N[C@H](C(=O)N[C@H]1/C=C/CCNC(=O)/C=C/[C@H](C)NC1=O)C(C)C`, the EC50 was 48.1 ± 8.7 nM (MM.1S; cell viability, CellTiter-Glo; 24 h).
For `O=C(NC1CCN(c2ncnc3[nH]cnc23)CC1)c1cccc(S(=O)(=O)Nc2ccc(Cl)cc2)c1`, the viability was 100% (A549-ACE2; 22.22 µM).
`CC(C)C(C(=O)N(Cc1ccc(C2CCCCC2)cc1)c1ccc(C(=O)O)cc1)N(C)S(=O)(=O)c1c(F)c(F)c(F)c(F)c1F` (stereo not drawn) — result for “tumour growth delay”: 54 to 62% (NSG mice, Pa03C xenograft; ip, 10 mg/kg once daily, 15 days; relative to: vehicle).
`CO[C@H]1[C@H](O[C@H]([C@H]2O[C@@H](n3ccc(=O)[nH]c3=O)[C@H](O)[C@@H]2O)[C@H](NCCCNC(=O)[C@@H](NC(=O)[C@@H](NC(=O)N[C@H](C(=O)O)C(C)C)[C@@H]2CCNC(=N)N2)[C@@H](OC(=O)CCCCCCCCCCCCN(O)C(=N)N)C(C)C)C(N)=O)O[C@H](CN)[C@H]1O` has an MIC90 of greater than 35 µg/mL (Bacillus cereus; alamar blue; NRRL B-568).
For `[11CH3]Nc1ccc(C(=O)C2CCN(C3Cc4ccccc4CC3O)CC2)cc1` (single isomer, unassigned), the uptake was 0.77 %ID/g (Sprague-Dawley rat, kidney; 30 min).
`COc1ccc(CN[C@@H]2CO[C@H](C(c3ccccc3)c3ccccc3)C[C@H]2O)cc1` has an inhibition of 3.3% (OPRD1 (Homo sapiens, UniProt P41143); radioligand binding; 10 µM, with: [3H]DADLE).
`NCCNCCSc1ccccc1` gave a pKa of 6.1 (spectrophotometry; pH 6.2).
Under “incidence of adverse events”, `CC(C)C[C@@H](NC(=O)[C@H](NC(=O)[C@H]1CCCN1)[C@H](C)O)C(=O)N[C@H](Cc1c[nH]cn1)C(=O)N[C@@H](C(=O)N[C@H](Cc1c[nH]cn1)C(=O)N[C@H](CC(N)=O)C(=O)N[C@H](CCCNC(=N)N)C(=O)N[C@H](CCCNC(=N)N)C(=O)N[C@H](CCCNC(=N)N)C(=O)N[C@H](CCCNC(=N)N)C(=O)N[C@H](CCCNC(=N)N)C(N)=O)[C@H](C)O` is recorded as 66.7% (phase I single ascending dose; healthy male subjects; 36 mg, total events).
For `NC[C@@H](NC[C@@H]1CCCN1C[C@@H](CO)NC[C@@H](NCCC12CC3CC(CC(C3)C1)C2)c1ccccc1)c1ccccc1`, “potentiation of amikacin” read 2.3 fold (Klebsiella pneumoniae; bacterial growth; 16 µM, fold shift of IC90, with: amikacin).
`C[C@H](CS)C(=O)N[C@@H](Cc1c[nH]c2ccccc12)C(=O)O`: “MIC of meropenem” 32 µg/mL (Escherichia coli; IMP-1 producing; 10 µM, with: meropenem).
`NC[C@@H](NC[C@@H]1CCCN1C[C@@H](CO)NC[C@@H](NCCC1CC2CCC1C2)c1ccccc1)c1ccccc1` (stereo partly drawn): “potentiation of amikacin” 1.5 fold (Klebsiella pneumoniae; bacterial growth; 8 µM, fold shift of IC50, with: amikacin).
For `CN1CC[C@]23c4c5ccc(O)c4O[C@H]2c2ncc(-c4ccc(Cl)cc4)cc2C[C@@]3(OCCCc2ccccc2)[C@H]1C5`, “time to zero efficacy increase” read 136% (CD-1 mouse, chemotherapy-induced neuropathy; 10 mg/kg; relative to: morphine 10 mg/kg).
`NC[C@@H](NC[C@@H]1CCCN1C[C@@H](CO)NC[C@@H](NCCc1ccc(-c2ccccc2)cc1)c1ccccc1)c1ccccc1` — result for “potentiation of amikacin”: 1.1 fold (Escherichia coli; bacterial growth; 8 µM, fold shift of IC90, with: amikacin).
With `C=CC(=O)Nc1cc(-n2c(=O)ccc3cnc4ccc(-c5cn[nH]c5)cc4c32)ccc1C` the GI50 was greater than 10000 nM (HCT-116; cell growth; 72 h).

For quick reference, copied from above:
`CC(C)C(C(=O)N(Cc1ccc(C2CCCCC2)cc1)c1ccc(C(=O)O)cc1)N(C)S(=O)(=O)c1c(F)c(F)c(F)c(F)c1F` (stereo not drawn) — result for “tumour growth delay”: 54 to 62% (NSG mice, Pa03C xenograft; ip, 10 mg/kg once daily, 15 days; relative to: vehicle).
